Experimental data gathered from unrelated publications.
Every numbered part comes from another study and shows a few of its results, in no order.

Study 1 — method: protein binding microarray; form: double-stranded DNA, one strand shown; matrix: in vitro; concentration: not given; relative to: not given; reading: higher = stronger binding; measurement: E-score
Target: Histone acetyltransferase KAT6A, winged helix 2, GST fusion (KAT6A, Homo sapiens, UniProt Q92794, residues 85-181)
Notes: 8-mer, flanks averaged, mean of 2 arrays, mostly near background
Residues (chain): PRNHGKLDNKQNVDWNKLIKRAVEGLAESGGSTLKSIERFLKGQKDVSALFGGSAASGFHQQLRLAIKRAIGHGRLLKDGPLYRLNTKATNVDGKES
CGCCTCAA: 0.107
CCCCCTTC: -0.0131
AGGTGCAG: 0.0321
AAGCGCAT: 0.0911
AAGACTTC: -0.211
AAAGATGC: -0.0664

Study 2 — method: protein-binding microarray; form: double-stranded DNA, one strand shown; matrix: in vitro; concentration: 2540 nM top; notes: 60-bp whole probe; added: salmon DNA 0.4 mg/ml; relative to: random background probes; reading: higher = stronger binding; measurement: fitted relative affinity
Target: Interferon regulatory factor 3, full length, phosphomimetic (IRF3, Homo sapiens, UniProt Q14653, residues 1-427, S386D/S396D/S398D/S402D/T404D/S405D)
UniProt Q14653, sequence (whole entry, unmodified, looked up): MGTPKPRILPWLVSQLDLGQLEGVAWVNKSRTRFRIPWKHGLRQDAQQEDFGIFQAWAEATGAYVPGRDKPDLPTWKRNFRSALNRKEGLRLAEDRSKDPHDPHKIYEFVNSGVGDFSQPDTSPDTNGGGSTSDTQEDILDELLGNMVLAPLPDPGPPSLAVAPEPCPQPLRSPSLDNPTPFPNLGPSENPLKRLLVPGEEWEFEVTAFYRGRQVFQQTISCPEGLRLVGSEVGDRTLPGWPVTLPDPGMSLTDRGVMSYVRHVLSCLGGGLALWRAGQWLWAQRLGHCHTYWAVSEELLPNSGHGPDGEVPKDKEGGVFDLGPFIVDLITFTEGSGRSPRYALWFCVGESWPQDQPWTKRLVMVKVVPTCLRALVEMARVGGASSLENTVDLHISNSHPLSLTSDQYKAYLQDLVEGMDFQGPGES
GCCTAGCACGACGGACTGGGGTTTCGTGACGTGCTAGTCTTGATTCGCTTGACGCTGCTG: -0.367 z-score
GCCTAGCACTTAGATCTCAGTCTCGCTTAGTGCTAGGTCTTGATTCGCTTGACGCTGCTG: 0.426 z-score
GCCTAGCACGACGGACTGGACTATGGGGACGTGCTAGTCTTGATTCGCTTGACGCTGCTG: -0.629 z-score

Study 3 — method: universal PBM; form: double-stranded DNA, one strand shown; matrix: in vitro; concentration: not given; reading: higher = stronger binding; measurement: E-score
Target: Sal-like protein 4, full length isoform B (SALL4, Homo sapiens, UniProt Q9UJQ4-2, residues 1-616)
Notes: 8-mer, flanks averaged, mean of replicates
Residues (chain): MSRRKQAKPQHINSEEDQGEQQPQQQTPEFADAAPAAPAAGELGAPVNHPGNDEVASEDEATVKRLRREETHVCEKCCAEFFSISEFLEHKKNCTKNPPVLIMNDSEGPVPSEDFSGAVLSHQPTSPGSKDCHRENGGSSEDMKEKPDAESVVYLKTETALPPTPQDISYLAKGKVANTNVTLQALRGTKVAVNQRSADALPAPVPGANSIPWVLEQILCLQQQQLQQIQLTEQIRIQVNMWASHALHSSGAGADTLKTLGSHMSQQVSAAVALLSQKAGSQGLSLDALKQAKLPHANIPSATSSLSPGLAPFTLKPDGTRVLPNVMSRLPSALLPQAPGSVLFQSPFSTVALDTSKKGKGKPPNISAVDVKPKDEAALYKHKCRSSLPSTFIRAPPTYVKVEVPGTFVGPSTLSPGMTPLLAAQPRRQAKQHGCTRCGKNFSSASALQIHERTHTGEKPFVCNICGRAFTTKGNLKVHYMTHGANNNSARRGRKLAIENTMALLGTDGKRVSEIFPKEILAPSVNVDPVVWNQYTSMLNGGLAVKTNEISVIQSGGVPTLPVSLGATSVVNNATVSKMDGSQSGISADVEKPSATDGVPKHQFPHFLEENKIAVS
AACAGCAC: 0.024
ATACCTCG: 0.142
AGGGCGTC: -0.211
CACCAGGC: -0.269

Further values, each from its own experiment
PhoQ, residues 284 288 289 292 302 303 GLASVI
fold induction (PhoP, residues 12 14 15 18 19 LYFRQ (Escherichia coli, UniProt P23836); Sort-seq, refers to: YFP reporter; E. coli; PhoQ-PhoP variant library, added: 10 µM Mg2+; relative to: high Mg2+ state, higher = stronger signaling): 4.66

For quick reference, copied from above (further values, each from its own experiment):
PhoQ, residues 284 288 289 292 302 303 GLASVI
fold induction (PhoP, residues 12 14 15 18 19 LYFRQ (Escherichia coli, UniProt P23836); Sort-seq, refers to: YFP reporter; E. coli; PhoQ-PhoP variant library, added: 10 µM Mg2+; relative to: high Mg2+ state, higher = stronger signaling): 4.66
